Measured values pooled from the literature.
Each line is one published result; not all experiments were run side by side. ± marks the error that the study gave.
CPL: CPL (Toxoplasma gondii, UniProt Q6DMN0)
Oprd1: Delta-type opioid receptor (Oprd1, Rattus norvegicus, UniProt P33533)
Chain of UniProt P33533 (whole entry, looked up): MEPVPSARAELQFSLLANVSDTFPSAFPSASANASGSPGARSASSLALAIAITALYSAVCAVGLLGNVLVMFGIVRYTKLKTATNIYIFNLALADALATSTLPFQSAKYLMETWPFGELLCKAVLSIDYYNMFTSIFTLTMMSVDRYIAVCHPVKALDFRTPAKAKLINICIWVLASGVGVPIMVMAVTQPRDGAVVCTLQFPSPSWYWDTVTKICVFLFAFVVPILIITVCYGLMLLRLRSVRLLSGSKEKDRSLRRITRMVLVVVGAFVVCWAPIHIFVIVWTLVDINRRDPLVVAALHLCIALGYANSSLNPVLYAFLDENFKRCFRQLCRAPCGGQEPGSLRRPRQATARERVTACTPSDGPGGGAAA
Aminopeptidase N: Aminopeptidase N (Neisseria meningitidis, UniProt Q9JYV4)
Chain of UniProt Q62968 (whole entry, looked up): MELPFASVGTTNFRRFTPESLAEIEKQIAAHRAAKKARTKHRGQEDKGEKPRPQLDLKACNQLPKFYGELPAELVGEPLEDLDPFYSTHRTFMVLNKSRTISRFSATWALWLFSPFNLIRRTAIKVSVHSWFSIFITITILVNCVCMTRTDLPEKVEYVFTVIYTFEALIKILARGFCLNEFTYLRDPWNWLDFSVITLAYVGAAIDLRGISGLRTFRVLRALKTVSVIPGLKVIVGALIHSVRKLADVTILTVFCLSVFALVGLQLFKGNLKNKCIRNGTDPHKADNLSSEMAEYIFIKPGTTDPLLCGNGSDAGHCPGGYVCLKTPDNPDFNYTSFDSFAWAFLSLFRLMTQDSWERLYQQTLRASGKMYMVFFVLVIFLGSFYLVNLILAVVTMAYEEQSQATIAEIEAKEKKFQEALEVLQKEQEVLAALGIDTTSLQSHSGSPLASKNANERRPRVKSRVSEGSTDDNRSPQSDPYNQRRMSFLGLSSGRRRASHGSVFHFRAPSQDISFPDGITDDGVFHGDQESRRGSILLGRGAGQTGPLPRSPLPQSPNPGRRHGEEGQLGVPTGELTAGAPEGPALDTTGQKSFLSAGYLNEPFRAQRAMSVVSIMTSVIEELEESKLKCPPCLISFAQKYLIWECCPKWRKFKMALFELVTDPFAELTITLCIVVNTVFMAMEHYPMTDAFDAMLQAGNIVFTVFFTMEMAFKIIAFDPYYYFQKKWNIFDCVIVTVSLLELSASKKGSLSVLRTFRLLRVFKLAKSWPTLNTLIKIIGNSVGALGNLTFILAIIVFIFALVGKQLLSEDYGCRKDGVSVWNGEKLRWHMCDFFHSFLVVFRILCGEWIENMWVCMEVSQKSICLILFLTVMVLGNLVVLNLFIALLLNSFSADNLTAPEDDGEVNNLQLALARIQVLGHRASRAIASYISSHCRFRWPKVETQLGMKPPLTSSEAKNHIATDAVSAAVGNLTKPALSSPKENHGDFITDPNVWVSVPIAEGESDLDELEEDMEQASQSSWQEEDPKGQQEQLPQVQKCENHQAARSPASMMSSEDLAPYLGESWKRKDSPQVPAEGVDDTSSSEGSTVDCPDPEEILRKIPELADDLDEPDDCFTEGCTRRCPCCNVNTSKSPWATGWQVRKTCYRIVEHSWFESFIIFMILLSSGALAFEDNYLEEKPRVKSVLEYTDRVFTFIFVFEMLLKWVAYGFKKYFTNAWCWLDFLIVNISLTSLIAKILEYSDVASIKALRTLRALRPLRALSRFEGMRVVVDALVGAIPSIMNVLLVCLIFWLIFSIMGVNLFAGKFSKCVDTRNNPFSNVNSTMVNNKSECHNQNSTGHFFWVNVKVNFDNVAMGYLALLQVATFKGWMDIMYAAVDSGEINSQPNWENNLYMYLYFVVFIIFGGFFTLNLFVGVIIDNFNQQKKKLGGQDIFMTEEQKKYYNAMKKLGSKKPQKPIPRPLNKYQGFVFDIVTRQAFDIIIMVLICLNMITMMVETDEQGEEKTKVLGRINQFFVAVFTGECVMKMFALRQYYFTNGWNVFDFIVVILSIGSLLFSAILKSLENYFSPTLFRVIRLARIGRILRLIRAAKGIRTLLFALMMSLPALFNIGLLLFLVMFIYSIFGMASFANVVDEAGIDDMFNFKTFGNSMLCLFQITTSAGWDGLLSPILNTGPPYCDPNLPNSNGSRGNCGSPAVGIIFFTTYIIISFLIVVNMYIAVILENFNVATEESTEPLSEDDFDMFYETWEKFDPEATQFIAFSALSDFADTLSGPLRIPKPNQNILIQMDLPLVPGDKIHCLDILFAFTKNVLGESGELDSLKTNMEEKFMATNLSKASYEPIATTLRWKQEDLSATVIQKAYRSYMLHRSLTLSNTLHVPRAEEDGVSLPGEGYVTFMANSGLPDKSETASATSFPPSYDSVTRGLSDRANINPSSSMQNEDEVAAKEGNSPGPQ
Chain of UniProt P11511 (whole entry, looked up): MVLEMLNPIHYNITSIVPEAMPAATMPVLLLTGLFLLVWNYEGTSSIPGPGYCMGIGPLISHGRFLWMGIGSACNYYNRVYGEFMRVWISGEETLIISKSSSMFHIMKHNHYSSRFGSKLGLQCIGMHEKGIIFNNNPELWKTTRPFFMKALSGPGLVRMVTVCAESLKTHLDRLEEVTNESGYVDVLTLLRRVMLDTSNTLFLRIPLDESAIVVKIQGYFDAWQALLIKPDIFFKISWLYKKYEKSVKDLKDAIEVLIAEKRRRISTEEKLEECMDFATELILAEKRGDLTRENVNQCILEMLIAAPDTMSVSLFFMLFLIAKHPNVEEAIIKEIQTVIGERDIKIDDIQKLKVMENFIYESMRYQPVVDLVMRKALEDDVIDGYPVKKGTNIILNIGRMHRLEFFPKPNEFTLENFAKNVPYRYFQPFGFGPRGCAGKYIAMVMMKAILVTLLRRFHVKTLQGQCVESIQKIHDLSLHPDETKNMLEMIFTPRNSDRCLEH
Chain of UniProt P21554 (whole entry, looked up): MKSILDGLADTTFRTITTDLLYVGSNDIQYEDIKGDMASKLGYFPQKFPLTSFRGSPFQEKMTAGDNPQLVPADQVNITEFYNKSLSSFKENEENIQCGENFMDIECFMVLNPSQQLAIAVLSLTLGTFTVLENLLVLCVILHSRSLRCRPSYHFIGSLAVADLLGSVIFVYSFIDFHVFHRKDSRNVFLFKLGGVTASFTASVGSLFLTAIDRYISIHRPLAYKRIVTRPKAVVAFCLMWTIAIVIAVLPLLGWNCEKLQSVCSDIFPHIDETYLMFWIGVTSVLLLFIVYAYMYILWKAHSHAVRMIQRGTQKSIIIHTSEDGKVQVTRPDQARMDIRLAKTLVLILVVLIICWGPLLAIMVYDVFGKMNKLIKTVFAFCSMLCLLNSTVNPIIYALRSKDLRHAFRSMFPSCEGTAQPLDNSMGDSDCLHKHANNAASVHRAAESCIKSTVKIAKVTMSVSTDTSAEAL
Chain of UniProt P36896 (whole entry, looked up): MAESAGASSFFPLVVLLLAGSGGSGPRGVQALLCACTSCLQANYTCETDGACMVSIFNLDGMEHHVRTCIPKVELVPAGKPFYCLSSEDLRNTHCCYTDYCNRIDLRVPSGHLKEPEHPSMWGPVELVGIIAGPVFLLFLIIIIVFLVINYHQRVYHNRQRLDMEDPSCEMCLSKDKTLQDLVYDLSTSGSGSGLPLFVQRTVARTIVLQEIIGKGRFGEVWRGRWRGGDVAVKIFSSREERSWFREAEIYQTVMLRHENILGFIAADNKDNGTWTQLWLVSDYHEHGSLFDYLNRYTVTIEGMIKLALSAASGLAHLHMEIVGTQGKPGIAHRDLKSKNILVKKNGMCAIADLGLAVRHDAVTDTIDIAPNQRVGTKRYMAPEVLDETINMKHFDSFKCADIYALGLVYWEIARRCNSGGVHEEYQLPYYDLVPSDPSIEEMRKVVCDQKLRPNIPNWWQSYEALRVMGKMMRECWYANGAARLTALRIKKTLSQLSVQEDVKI
Chain of UniProt P51878 (whole entry, looked up): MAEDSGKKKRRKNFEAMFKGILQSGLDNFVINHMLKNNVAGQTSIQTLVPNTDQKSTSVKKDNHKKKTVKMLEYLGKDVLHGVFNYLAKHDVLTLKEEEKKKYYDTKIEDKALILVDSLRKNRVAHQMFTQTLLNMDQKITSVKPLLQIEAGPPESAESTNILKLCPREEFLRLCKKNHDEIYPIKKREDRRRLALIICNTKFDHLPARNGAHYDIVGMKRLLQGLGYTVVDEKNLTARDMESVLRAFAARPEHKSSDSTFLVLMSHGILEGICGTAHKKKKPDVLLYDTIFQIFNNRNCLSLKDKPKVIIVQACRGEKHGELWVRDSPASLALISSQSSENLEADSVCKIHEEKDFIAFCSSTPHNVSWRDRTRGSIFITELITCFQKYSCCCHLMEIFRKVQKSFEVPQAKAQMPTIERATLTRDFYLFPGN
Chain of UniProt P41143 (whole entry, looked up): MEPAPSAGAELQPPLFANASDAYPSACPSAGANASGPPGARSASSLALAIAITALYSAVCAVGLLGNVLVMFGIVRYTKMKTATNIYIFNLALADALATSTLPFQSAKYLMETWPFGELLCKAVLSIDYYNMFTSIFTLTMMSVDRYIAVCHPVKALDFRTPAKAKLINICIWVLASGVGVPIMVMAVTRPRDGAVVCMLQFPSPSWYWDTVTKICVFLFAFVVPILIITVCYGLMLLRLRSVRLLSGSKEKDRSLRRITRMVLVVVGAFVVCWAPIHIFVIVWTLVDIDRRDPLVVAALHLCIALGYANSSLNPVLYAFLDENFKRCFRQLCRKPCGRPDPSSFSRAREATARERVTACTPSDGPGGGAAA
Chain of UniProt Q9H008 (whole entry, looked up): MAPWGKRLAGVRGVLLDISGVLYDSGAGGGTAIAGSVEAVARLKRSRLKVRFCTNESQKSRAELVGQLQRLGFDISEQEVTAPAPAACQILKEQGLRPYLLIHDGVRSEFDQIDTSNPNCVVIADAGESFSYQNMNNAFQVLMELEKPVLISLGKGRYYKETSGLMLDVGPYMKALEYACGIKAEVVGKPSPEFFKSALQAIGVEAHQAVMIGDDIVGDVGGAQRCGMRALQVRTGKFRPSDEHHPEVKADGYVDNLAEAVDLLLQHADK

COc1ccc(N2CCN(C(=O)ON3C(=O)C4CN(Cc5ccc(Oc6ccccc6)cc5)CCN4C3=O)CC2)cc1 (stereo not drawn) — result for “FP probe reactivity”: “no inhibition” (Androgen-induced gene 1 protein (Homo sapiens, UniProt Q9NVV5); inhibitor, biochemical; concentration not given).
N#Cc1nc(N2CCOCC2)nc(N(Cc2ccc(F)cc2)CC2CCCOC2)n1 (stereo not drawn) gave a selectivity ratio of 3.5 (CPL; enzyme activity, inhibitor; baseline: human over Toxoplasma IC50).
The inactivation V1/2 of CCN(Cc1ccccc1)C(=O)CCc1nc(CN2CCN(C(=O)Cc3ccc(OC)c(OC)c3)CC2)no1 is reported as -62.8 mV (Sodium channel protein type 10 subunit alpha (Scn10a, Rattus norvegicus, UniProt Q62968); sodium current, whole-cell patch clamp; rat DRG neurons; 10 µM).
The selectivity ratio of CC(C)CCN(CCc1ccccc1)c1nc(C#N)nc(N2CCOCC2)n1 is reported as 0.8 (CPL; enzyme activity, inhibitor; baseline: human over Toxoplasma IC50).
The relative potency of N[C@@H](Cc1ccc(C(=O)NCCc2cccc3ccccc23)cc1)C(=O)N1Cc2ccccc2C[C@H]1C(=O)N[C@@H](Cc1ccccc1)C(=O)N[C@@H](Cc1ccccc1)C(=O)O is reported as 7 to 14 fold (Delta-type opioid receptor (OPRD1, Homo sapiens, UniProt P41143); G-protein activation, agonist; HEK293 stably expressing receptor; baseline: DPDPE).
The inhibition of CC(=O)NC(Cc1ccc(Br)c(Cl)c1)C(=O)N[C@@H](C)C(=O)N1CCC[C@H]1C(=O)N1CCC[C@H]1C(=O)N[C@@H](CCC(=O)O)C(=O)N[C@@H](Cc1c[nH]cn1)C(=O)N[C@@H](CO)C(=O)N[C@H](C(=O)N[C@@H](C)C(N)=O)[C@@H](C)OP(=O)(O)O (stereo partly drawn) is reported as 5.63% (Activin receptor type-1B (ACVR1B, Homo sapiens, UniProt P36896); enzyme activity, inhibitor; 10 µM).
For CCCCn1c2ccccc2c2cc(C(=O)c3cccc4ccccc34)ccc21, the Emax was 51.3% (Cannabinoid receptor 1 (CNR1, Homo sapiens, UniProt P21554); cAMP inhibition, agonist, BRET; HEK293 expressing CNR1; with: forskolin; baseline: forskolin alone).
O=c1c(O)c(-c2cc(O)ccc2O)oc2cc(O)cc(O)c12 has an inhibition of 63.4 ± 2.14% (Acetylcholinesterase (ACHE, Homo sapiens, UniProt P22303); enzyme activity, inhibitor; 250 µg/mL).
Under “relative potency per fucoside”, CC[C@H](C)[C@H](NC(=O)[C@H](Cc1c[nH]cn1)NC(=O)[C@H](CCCCNC(=O)[C@@H](NC(=O)[C@H](CCCCN)NC(=O)CSC[C@H](NC(=O)[C@H](Cc1ccccc1)NC(=O)[C@H](CCCCNC(=O)[C@H](CC(C)C)NC(=O)[C@@H]1CCCN1C(=O)[C@H](CCCCN)NC(=O)CCS[C@@H]1O[C@H](CO)[C@H](O)[C@H](O)[C@H]1O)NC(=O)[C@H](CC(C)C)NC(=O)[C@@H]1CCCN1C(=O)[C@H](CCCCN)NC(=O)C[C@@H]1O[C@@H](C)[C@@H](O)[C@@H](O)[C@@H]1O)C(N)=O)[C@@H](C)CC)NC(=O)[C@@H](NC(=O)[C@H](CCCCN)NC(=O)CSC[C@H](NC(=O)[C@H](Cc1ccccc1)NC(=O)[C@H](CCCCNC(=O)[C@H](CC(C)C)NC(=O)[C@@H]1CCCN1C(=O)[C@H](CCCCN)NC(=O)CCS[C@@H]1O[C@H](CO)[C@H](O)[C@H](O)[C@H]1O)NC(=O)[C@H](CC(C)C)NC(=O)[C@@H]1CCCN1C(=O)[C@H](CCCCN)NC(=O)C[C@@H]1O[C@@H](C)[C@@H](O)[C@@H](O)[C@@H]1O)C(N)=O)[C@@H](C)CC)C(N)=O is recorded as 2.1 (Fucose-binding lectin PA-IIL (lecB, Pseudomonas aeruginosa, UniProt Q9HYN5); binding, isothermal titration calorimetry; divided by fucoside copies; baseline: monovalent fucoside KD over ligand KD).
Cc1cc(O)cc(C)c1C[C@H](N)C(=O)N1Cc2ccccc2C[C@H]1C(=O)NCC(=O)NCc1ccccc1 has a remaining activity of 72 ± 2% (Oprd1; adenylyl cyclase activity, agonist; C6 cells expressing Oprd1; concentration not given, with: forskolin; baseline: forskolin control).
For CC(=O)N[C@H]1C(O)O[C@H](CO)[C@@H](O[C@@H]2O[C@H](CO)[C@H](O)[C@H](O)[C@H]2O)[C@@H]1O (stereo partly drawn), the ΔH was -12.7 kcal/mol (Galectin-3 (LGALS3, Homo sapiens, UniProt P17931); ITC; full-length protein).
CC(=O)OC1C(C)C(OC2CC3OCOC3C(C)O2)C=COC2(C)Oc3c(C)c(O)c4c(c3C2=O)C(=O)C=C(NC(=O)C(C)=CC=CC(C(C)OC(=O)C(C)(C)CC(=O)O)C(O)C(C)C(O)C1C)C4=O (stereo not drawn) gave an activity ratio of 10 (DNA-directed RNA polymerase subunit beta (rpoB, Escherichia coli K-12, UniProt P0A8V2, S531L); inhibitor; baseline: compound over rifampicin).
CC(C)P(=S)(NP(=[Se])(C(C)C)C(C)C)C(C)C has a ΔH of -19 kcal/mol (Alpha-amylase (Bacillus subtilis, UniProt P00691); binding, Van't Hoff analysis; pH 6.8, 298–310 K).
CC[C@H](C)[C@H]1C(=O)O[C@H](C(C)C)C(=O)N(C)[C@@H]([C@@H](C)CC)C(=O)O[C@H](C(C)C)C(=O)N(C)[C@@H]([C@@H](C)CC)C(=O)O[C@H](C(C)C)C(=O)N1C — result for “thermal stabilization temperature”: over 61 °C (Heat shock protein HSP 90-beta (HSP90AB1, Homo sapiens, UniProt P08238); CETSA; MCF7; 20 µM, 1 h).
For C=C(C)C(=O)Oc1ccc(C(C)(C)c2ccc(OC(=O)C(=C)C)cc2)cc1, “maximal effect concentration” read 100 µM (Aromatase (CYP19A1, Homo sapiens, UniProt P11511); inhibitor, tritiated water release; JEG-3; 18 h).
CCC[C@H](N)C(=O)Nc1ccc2c(CC(N)=O)cc(=O)oc2c1: “relative hydrolysis rate” 20 to 40% (Aminopeptidase N; enzyme activity, substrate; 3 µM, pH 7.5, 37 °C; baseline: L-hArg-ACC).
For Cc1cc(O)cc(C)c1CC(N)C(=O)NC1CCNc2c(F)cc(Cc3ccccc3)cc21 (stereo not drawn), the maximal stimulation was 28% (Oprd1; GTPγS binding, agonist; C6 cells expressing DOR; baseline: DPDPE at 10 µM).
With CC[C@@H](C)[C@@H](NC(=O)[C@@H](CC(N)=O)NC(=O)[C@@H](CC(N)=O)NC(=O)[C@H](N)CCCNC(N)=O)C(=O)N1C[C@@H](n2cc([C]34[CH]5[CH]6[CH]7[CH]3[Fe]6754389%10[CH]4[CH]3[CH]8[CH]9[CH]4%10)nn2)C[C@H]1C(=O)N[C@@H](Cc1csc2ccccc12)C(=O)N[C@H](CO)C(N)=O (stereo partly drawn) the binding enthalpy was -14.6 ± 1.7 kcal/mol (Envelope glycoprotein gp160 (env, Human immunodeficiency virus type 1 group M subtype B, UniProt P35961); ITC; concentration not given, pH 7.4, 25 °C).
Nc1nc2c([C@@H]3O[C@@H]4COP(=O)(O)O[C@H]5[C@@H](O)[C@H](n6cnc7c(=O)[nH]c(N)nc76)O[C@@H]5COP(=O)(O)O[C@H]4[C@H]3O)snc2c(=O)[nH]1 — result for “dissociation rate constant k-1”: 0.096 ± 0.091 s⁻¹ (Cyclic di-GMP phosphodiesterase RocR (rocR, Pseudomonas aeruginosa, UniProt Q9HX69); substrate, HPLC; 10 µM, with: 100 nM enzyme).
C[C@@H]1O[C@@H](O[C@H]2C[C@@H](O)[C@]3(CO)[C@H]4[C@H](O)C[C@]5(C)[C@@H](C6=CC(=O)OC6)CC[C@]5(O)[C@@H]4CC[C@]3(O)C2)[C@H](O)[C@H](O)[C@H]1O gave a tolerance ratio of 8 X (Na+/K+-ATPase; inhibitor; baseline: Oncopeltus fasciatus over monarch).
The substrate hydrolysis of CC(=O)NCC(=O)NCC(=O)N[C@@H](CCCCNP(=O)(O)O)C(=O)N[C@@H](CCCCN)C(=O)NCC(N)=O is reported as 29.8% (Phospholysine phosphohistidine inorganic pyrophosphate phosphatase (LHPP, Homo sapiens, UniProt Q9H008); enzyme activity; concentration not given, 90 min, pH 7.8, with: substrate 100 µM).
For CC(=O)N[C@@H](Cc1c[nH]c2ccccc12)C(=O)N[C@@H](CCC(=O)O)C(=O)N[C@@H](Cc1c[nH]cn1)C(=O)N[C@@H](CC(=O)O)C(=O)Nc1ccc2c(C)cc(=O)oc2c1, the Vmax was 1370 ± 49.4 RFU/min (Caspase-5 (CASP5, Homo sapiens, UniProt P51878); substrate cleavage, substrate, fluorogenic AMC release; enzyme 0.25 activity units/µL).
N=C(N)NCCCC[C@H](N)C(=O)Nc1ccc2c(CC(N)=O)cc(=O)oc2c1 — result for “relative hydrolysis rate”: 100% (Aminopeptidase N; substrate; 3 µM, pH 7.5; baseline: best substrate).
Under “closed state stabilisation factor”, O=C(O)COc1ccc(Cl)cc1 is recorded as 20 (Chloride channel protein (Torpedo marmorata, UniProt P21564, C212S); chloride channel gating, inhibitor, kinetic model fit).
